Measured values pooled from the literature.
A part holds a random share of what one study measured.

Series 1
Target: Histone acetyltransferase KAT6A, both winged helices, GST fusion (KAT6A, Homo sapiens, UniProt Q92794, residues 1-181)
Method: protein binding microarray
Form: double-stranded DNA, one strand shown
Matrix: in vitro
Tested at: not given
Notes: 8-mer, flanks averaged, mean of 2 arrays, mostly near background
Baseline: not given
Direction: higher = stronger binding
Residues (chain): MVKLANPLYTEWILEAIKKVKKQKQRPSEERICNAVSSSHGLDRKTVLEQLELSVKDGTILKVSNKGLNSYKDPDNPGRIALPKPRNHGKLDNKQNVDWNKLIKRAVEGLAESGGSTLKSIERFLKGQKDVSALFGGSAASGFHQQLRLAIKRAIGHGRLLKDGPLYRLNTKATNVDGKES
| Sequence | E-score |
| --- | --- |
| AACGACCT | -0.0906 |
| ACTCAACT | -0.0941 |
| AGGTGAAT | -0.127 |

Series 2
Target: Prothrombin, mature alpha-thrombin (F2, Homo sapiens, UniProt P00734)
Method: aptamer microarray, sandwich
Form: DNA with 2'F-ANA
Matrix: in vitro
Tested at: 200 nM
Notes: whole 15-mer aptamer, many near background
Added: Cy3 exosite-II aptamer, 400 nM
Direction: higher = stronger binding
| Sequence | mean fluorescence intensity [a.u.] |
| --- | --- |
| GGTTGGTGTGGTTGG (2'F-ANA at 3 4 6 7 8 9) | 673 |
| GGTTGGTGTGGTTGG (2'F-ANA at 1 2 3 4 6 10 11 12 14) | 56.8 |
| GGTTGGTGTGGTTGG (2'F-ANA at 6 7 8 11) | 545 |

Other studies, line by line
CBF1 full length, N-terminal tag: Centromere-binding protein 1, full length, N-terminal tag (CBF1, Saccharomyces cerevisiae, UniProt P17106, residues 1-351)
Chain of UniProt P17106 (whole entry, looked up): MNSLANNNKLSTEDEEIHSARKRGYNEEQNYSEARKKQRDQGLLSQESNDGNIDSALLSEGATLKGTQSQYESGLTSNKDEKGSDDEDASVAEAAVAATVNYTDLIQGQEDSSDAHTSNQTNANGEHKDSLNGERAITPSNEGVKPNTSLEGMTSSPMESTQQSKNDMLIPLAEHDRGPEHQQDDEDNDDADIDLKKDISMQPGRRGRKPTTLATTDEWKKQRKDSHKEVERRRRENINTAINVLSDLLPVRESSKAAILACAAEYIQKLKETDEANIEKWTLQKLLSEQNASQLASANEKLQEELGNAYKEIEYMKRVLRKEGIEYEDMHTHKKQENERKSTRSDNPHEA
| Molecule | target | test | test system | conditions | scale | quantity | value |
| --- | --- | --- | --- | --- | --- | --- | --- |
| CTATGAATATACCGTCATGCCATTTGGCTTAGTTTCGTCTTGATTCGCTTGACGCTGCTG | CBF1 full length, N-terminal tag | protein-binding microarray | double-stranded DNA, one strand shown, in vitro | 0.8 µM, whole 60-bp probe, no competitor | higher = stronger binding | fluorescence intensity | 529 a.u. |
| PhoQ, residues 284 288 289 292 302 303 TYGVAM | PhoP, residues 12 14 15 18 19 GQAIL (Escherichia coli, UniProt P23836) | Sort-seq, measured: YFP reporter | E. coli | PhoQ-PhoP variant library, added: 10 µM Mg2+ | baseline: high Mg2+ state, higher = stronger signaling | fold induction | 21 |
| CTACAATCACCGTGTCACCCAAATCGATAATGTTTCGTCTTGATTCGCTTGACGCTGCTG | CBF1 full length, N-terminal tag | protein-binding microarray | double-stranded DNA, one strand shown, in vitro | 0.8 µM, whole 60-bp probe, no competitor | higher = stronger binding | fluorescence intensity | 554 a.u. |
